# Results gathered from unrelated publications.
# Compare with care: the assays were run in different laboratories. ± marks the error that the study gave.
# IDE: Insulin-degrading enzyme (IDE, Homo sapiens, UniProt P14735)
# USP33 ZnF-UBD domain: Ubiquitin carboxyl-terminal hydrolase 33, ZnF-UBD domain (USP33, Homo sapiens, UniProt Q8TEY7)
# Chain of UniProt Q8TEY7 (whole entry, looked up): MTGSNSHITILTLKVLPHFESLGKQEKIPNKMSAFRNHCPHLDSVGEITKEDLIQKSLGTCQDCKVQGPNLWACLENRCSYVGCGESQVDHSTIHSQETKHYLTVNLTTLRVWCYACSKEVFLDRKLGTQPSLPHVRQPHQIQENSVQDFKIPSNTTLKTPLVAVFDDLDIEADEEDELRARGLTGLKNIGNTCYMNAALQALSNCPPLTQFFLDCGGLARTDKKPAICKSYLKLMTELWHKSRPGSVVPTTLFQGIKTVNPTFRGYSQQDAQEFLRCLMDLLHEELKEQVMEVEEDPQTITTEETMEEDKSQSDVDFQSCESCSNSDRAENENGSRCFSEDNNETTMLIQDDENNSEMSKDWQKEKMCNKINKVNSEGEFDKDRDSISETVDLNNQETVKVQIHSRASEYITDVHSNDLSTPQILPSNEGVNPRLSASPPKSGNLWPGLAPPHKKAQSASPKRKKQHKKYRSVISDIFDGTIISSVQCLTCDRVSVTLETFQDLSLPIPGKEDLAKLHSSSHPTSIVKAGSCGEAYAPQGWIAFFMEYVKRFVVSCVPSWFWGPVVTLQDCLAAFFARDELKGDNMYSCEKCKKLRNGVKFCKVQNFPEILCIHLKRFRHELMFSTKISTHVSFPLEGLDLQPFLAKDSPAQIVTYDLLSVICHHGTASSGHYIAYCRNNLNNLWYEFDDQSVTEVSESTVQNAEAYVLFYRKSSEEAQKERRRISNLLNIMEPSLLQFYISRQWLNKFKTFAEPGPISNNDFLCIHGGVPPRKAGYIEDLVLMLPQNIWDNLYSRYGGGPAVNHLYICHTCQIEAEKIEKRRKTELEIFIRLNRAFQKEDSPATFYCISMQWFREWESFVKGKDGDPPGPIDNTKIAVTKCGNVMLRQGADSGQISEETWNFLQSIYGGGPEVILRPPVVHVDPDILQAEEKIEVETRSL
# Cereblon/Ikaros: Cereblon/Ikaros (Homo sapiens, UniProt Q13422+Q96SW2)
# Chain of UniProt Q13422 (whole entry, looked up): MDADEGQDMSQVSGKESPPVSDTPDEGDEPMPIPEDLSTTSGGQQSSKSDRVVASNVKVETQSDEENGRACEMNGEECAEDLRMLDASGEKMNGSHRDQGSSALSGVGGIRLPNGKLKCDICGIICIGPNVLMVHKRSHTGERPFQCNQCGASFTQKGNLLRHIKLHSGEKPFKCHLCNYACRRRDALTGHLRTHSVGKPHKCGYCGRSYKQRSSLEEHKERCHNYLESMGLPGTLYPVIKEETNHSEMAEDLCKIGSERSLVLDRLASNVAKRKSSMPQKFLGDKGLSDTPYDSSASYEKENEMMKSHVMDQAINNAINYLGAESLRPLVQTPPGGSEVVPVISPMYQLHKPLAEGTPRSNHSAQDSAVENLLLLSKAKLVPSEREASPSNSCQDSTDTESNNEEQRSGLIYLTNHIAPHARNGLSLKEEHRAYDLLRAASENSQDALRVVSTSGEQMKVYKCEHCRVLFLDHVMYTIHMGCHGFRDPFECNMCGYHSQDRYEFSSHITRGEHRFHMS
# Chain of UniProt Q96SW2 (whole entry, looked up): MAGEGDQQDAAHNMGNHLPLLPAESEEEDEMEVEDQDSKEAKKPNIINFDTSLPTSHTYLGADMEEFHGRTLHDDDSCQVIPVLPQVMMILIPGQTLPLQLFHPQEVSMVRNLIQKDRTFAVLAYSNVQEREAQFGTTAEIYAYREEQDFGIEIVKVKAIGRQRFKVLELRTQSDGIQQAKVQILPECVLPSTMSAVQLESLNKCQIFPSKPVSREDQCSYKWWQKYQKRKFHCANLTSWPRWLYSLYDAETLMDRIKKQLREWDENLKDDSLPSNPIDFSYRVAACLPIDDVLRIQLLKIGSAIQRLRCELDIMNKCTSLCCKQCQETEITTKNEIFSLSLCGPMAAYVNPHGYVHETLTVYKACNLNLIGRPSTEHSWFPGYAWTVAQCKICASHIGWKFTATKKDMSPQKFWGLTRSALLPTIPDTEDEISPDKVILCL
SMILES,target or system,assay,test system,conditions,quantity,value
Cc1ccccc1S(=O)(=O)N1CCCCN2[C@H](CO)[C@@H](c3ccc(-c4cccc(F)c4)cc3)[C@@H]2C1,IDE,"enzyme activity, inhibitor, fluorescence kinetic",,added: Mca-RPPGFSAFK(Dnp)-OH substrate,EC50,1.2 µM
Cc1[nH]c(C)c(-c2cccc(-c3ccc(OC(F)(F)F)cc3)c2)c(=O)c1Br,Plasmodium yoelii,,17XL,384-well,IC50,0.258 ± 0.067 µM
CC1(C(=O)Nc2nnc(S(N)(=O)=O)s2)CC1,Enterococcus faecium γ-carbonic anhydrase,"CO2 hydration, inhibitor, stopped-flow kinetics",,,Ki,0.466 µM
Nc1nc(CC(=O)O)cs1,USP33 ZnF-UBD domain,,,,Kd,> 1000 µM
Cc1[nH]c(C)c(-c2ccc(-c3ccc(C(F)(F)F)cc3C(F)(F)F)nc2)c(=O)c1Br,Plasmodium yoelii,,17XL,384-well,IC50,0.116 ± 0.018 µM
Cc1ccccc1-c1ccc([C@H]2[C@@H](CO)N3C(=O)CN(C(=O)c4cccnc4)C[C@H]23)cc1,IDE,"enzyme activity, inhibitor, fluorogenic kinetic",,added: Mca-RPPGFSAFK(Dnp)-OH substrate,EC50,1.95 µM
O=C(O)Cc1nc2ccccc2o1,USP33 ZnF-UBD domain,,,,Kd,368 µM
Cc1ccccc1-c1ccc([C@@H]2[C@H]3CN(C(=O)c4ccncc4)CC(=O)N3[C@H]2CO)cc1,IDE,"enzyme activity, inhibitor, fluorogenic kinetic",,added: Mca-RPPGFSAFK(Dnp)-OH substrate,EC50,4.2 µM
NS(=O)(=O)c1nnc(NC(=O)CCc2ccc(F)cc2)s1,Enterococcus faecium γ-carbonic anhydrase,"CO2 hydration, inhibitor, stopped-flow kinetics",,,Ki,0.0768 µM
O=C(O)CCn1ccccc1=O,USP33 ZnF-UBD domain,,,,Kd,> 1000 µM
CC(C)C[C@H](NC(=O)C[C@H](O)[C@H](CC(C)C)NC(=O)[C@H](Cc1c[nH]cn1)NC(=O)CNC(=O)[C@@H](NC(=O)[C@H](C)NC(=O)[C@H](Cc1c[nH]c2ccccc12)NC(=O)[C@H](CCC(N)=O)NC(=O)[C@@H](Cc1ccccc1)NC(=O)COCCOCCNC(=O)CCC(C(=O)O)N1CCN(CC(=O)O)CCN(CC(=O)O)CCN(CC(=O)O)CC1)C(C)C)C(N)=O (some centres unmarked) [lutetium-177 labelled],,,"female BALB/c nu/nu mice, intestines","intravenous, 50 pmol, 24 h",tissue uptake,0.02 ± 0.03 %ID/g
CC1(C)CCCCN1CC(=O)Nc1nnc(S(N)(=O)=O)s1,Enterococcus faecium γ-carbonic anhydrase,"CO2 hydration, inhibitor, stopped-flow kinetics",,,Ki,0.182 µM
O=C1CCC(N2C(=O)C=C(Nc3cccc(C4(NCCc5ccc(C(F)(F)F)c(Cl)c5)CCC4)c3)C2=O)C(=O)N1 (centres unmarked),Cereblon/Ikaros,"degrader, HiBiT",Jurkat,5 h,DC50,0.02 ± 0.001 µM
O=C(O)Cn1cnc2ccccc2c1=O,USP33 ZnF-UBD domain,,,,Kd,> 1000 µM
NS(=O)(=O)c1nnc(NC(=O)COC2CCCCC2)s1,Enterococcus faecium γ-carbonic anhydrase,"CO2 hydration, inhibitor, stopped-flow kinetics",,,Ki,0.284 µM
CC1=C(Nc2cccc(C3(NCCc4ccc(C(F)(F)F)c(Cl)c4)CCC3)c2)C(=O)N(C2CCC(=O)NC2=O)C1=O (centres unmarked),Cereblon/Ikaros,"degrader, HiBiT luminescence, measured: endogenous HiBiT-tagged protein",,,DC50,26 ± 17 µM
CCCNC(=O)N1CC(=O)N2[C@H](CO)[C@@H](c3ccc(-c4cccc(C)c4)cc3)[C@@H]2C1,IDE,"enzyme activity, inhibitor, fluorogenic kinetic",,added: Mca-RPPGFSAFK(Dnp)-OH substrate,EC50,0.77 µM

# Some of these lines once more:
SMILES,target or system,assay,test system,conditions,quantity,value
CC1(C)CCCCN1CC(=O)Nc1nnc(S(N)(=O)=O)s1,Enterococcus faecium γ-carbonic anhydrase,"CO2 hydration, inhibitor, stopped-flow kinetics",,,Ki,0.182 µM
Cc1[nH]c(C)c(-c2cccc(-c3ccc(OC(F)(F)F)cc3)c2)c(=O)c1Br,Plasmodium yoelii,,17XL,384-well,IC50,0.258 ± 0.067 µM
